Measured values pooled from the literature.
Lines come from different studies, so protocols differ. Values joined by “and” are separate records of one study, mostly repeats; a detail may differ. Numbers after ± are the reported error.

CCc1nn(C)c2nc(-c3ccc(C(=O)O)cc3)nc(NCc3ccccc3)c12 has a body weight of 22.3 g and 25 g and 23.7 g and 22.7 g (NSG mice; dose not given, day 15 of treatment).
CC[C@H](C)[C@H](NC(=O)[C@H](CCCCN)NC(=O)CNC(=O)[C@H](CC(C)C)NC(=O)[C@H](Cc1ccccc1)NC(=O)[C@H](CCCCN)NC(=O)[C@H](CO)NC(=O)[C@H](Cc1ccccc1)NC(=O)[C@H](Cc1c[nH]c2ccccc12)NC(=O)[C@H](CCC(N)=O)NC(=O)[C@@H](NC(=O)[C@H](Cc1ccccc1)NC(=O)CCCCCNC(=O)CN1CCN(CC(=O)O)CCN(CC(=O)O)CCN(CC(=O)O)CC1)C(C)C)C(=O)N[C@@H](CCC(=O)O)C(=O)N1CCC[C@H]1C(=O)N[C@@H](CC(=O)O)C(=O)N[C@H](C(=O)N[C@@H](CO)C(=O)N[C@@H](CCC(N)=O)C(=O)N[C@H](C(=O)N[C@@H](CCC(N)=O)C(=O)N[C@@H](CC(=O)O)C(=O)N1CCC[C@H]1C(=O)N[C@@H](CC(N)=O)C(=O)N[C@@H](CC(=O)O)C(=O)N[C@@H](CCC(N)=O)C(=O)N[C@@H](Cc1ccc(O)cc1)C(=O)N[C@@H](CCC(=O)O)C(=O)N1CCC[C@H]1C(=O)N[C@@H](Cc1ccccc1)C(=O)O)C(C)C)C(C)C [copper-64 labelled] gave a tissue uptake of 0.84 ± 0.1 %ID/g (GZMB-/- mice, CT26 tumour-bearing, blood; 2 h, vehicle-treated).
CC1(C)C(=O)N(c2ccc(C#N)c(C(F)(F)F)c2)C(=S)N1c1ccc(C(=O)O)c(F)c1 has a Tmax of 72 h (male human, plasma; oral, 40 mg, single dose, fasted).
With C=Cc1c(C)c2cc3nc(c(CC(=O)[O-])c4[n-]c(cc5nc(cc1[n-]2)C(C)=C5CC)c(C)c4C(=O)[O-])C(CCC(=O)[O-])C3C.[Cu+2].[Na+].[Na+].[Na+] (stereo not shown) the serum albumin was 1 ± 0.19 g/dL (Wistar rat, female; oral, 1000 mg/kg daily, 28 days).
CC(C)[C@H](NC(=O)[C@H](Cc1c[nH]c2ccccc12)NC(=O)[C@H](CCCNC(=N)N)NC(=O)[C@H](CCCNC(=N)N)NC(=O)[C@@H](NC(=O)[C@@H](NC(=O)[C@H](CCCNC(=N)N)NC(=O)[C@@H](NC(=O)[C@@H](NC(=O)[C@H](CCCNC(=N)N)NC(=O)[C@H](CCCNC(=N)N)NC(=O)[C@@H](NC(=O)[C@H](Cc1c[nH]c2ccccc12)NC(=O)[C@H](CCCNC(=N)N)NC(=O)[C@H](CCCNC(=N)N)NC(=O)[C@@H](NC(=O)[C@H](CCCNC(=N)N)NC(=O)[C@H](CCCNC(=N)N)NC(=O)[C@@H](NC(=O)[C@H](Cc1c[nH]c2ccccc12)NC(=O)[C@H](CCCNC(=N)N)NC(=O)[C@@H](N)CCCNC(=N)N)C(C)C)C(C)C)C(C)C)C(C)C)C(C)C)C(C)C)C(C)C)C(=O)N[C@@H](CCCNC(=N)N)C(=O)N[C@@H](CCCNC(=N)N)C(=O)O has an organ weight of 0.8 ± 0.03% (measured: lung; mice; intravenous, 20 mg/kg, after 2 doses, recovery; baseline: body weight).
CC(C)[C@@H]1NC(=O)CNC(=O)[C@H](CC(N)=O)NC(=O)[C@H](CCCNC(=N)N)NC(=O)[C@H](Cc2ccc(O)cc2)NC(=O)[C@H](C(C)C)NC(=O)[C@@H](NC(=O)[C@@H](NC(=O)[C@H](CC(N)=O)NC(=O)[C@H](Cc2c[nH]c3ccccc23)NC(=O)[C@H](C)NC(=O)[C@H](Cc2ccccc2)NC(=O)CNC(=O)[C@H](CCCCN)NC(=O)[C@H](Cc2ccccc2)NC(=O)[C@H](Cc2ccccc2)NC(=O)[C@H](CCCCN)NC(=O)OCC2c3ccccc3-c3ccccc32)C(C)C)CSSC[C@@H](C(=O)N[C@@H](Cc2c[nH]cn2)C(=O)N[C@@H](CCCNC(=N)N)C(=O)N[C@@H](CCCNC(=N)N)C(=O)N[C@@H](C)C(=O)N[C@@H](CC(N)=O)C(N)=O)NC(=O)[C@H](C(C)C)NC(=O)[C@H](CCCNC(=N)N)NC1=O has an MCH of 13.1 ± 0.17 pg (ICR mouse, blood; intramammary, 5 mg/kg, day 5, 3 d dosing).
C=Cc1c(C)c2cc3nc(c(CC(=O)O)c4[nH]c(cc5nc(cc1[nH]2)C(C)=C5CC)c(C)c4C(=O)O)[C@@H](CCC(=O)NCCCC[C@H](NC(C)=O)C(=O)N[C@@H](Cc1ccccc1)C(=O)N[C@@H](Cc1ccccc1)C(=O)N[C@H](C(=O)N[C@@H](CC(C)C)C(=O)N[C@@H](CCCCN)C(=O)N[C@@H](CO)C(=O)NCC(=O)N[C@@H](CCC(N)=O)C(=O)N[C@@H](Cc1ccc(O)cc1)C(=O)N[C@@H](C)C(=O)N[C@@H](CO)C(=O)N[C@@H](Cc1ccc(O)cc1)C(=O)N[C@@H](Cc1c[nH]cn1)C(=O)N[C@@H](CS)C(=O)N[C@@H](Cc1c[nH]c2ccccc12)C(=O)N[C@@H](CS)C(=O)N[C@@H](Cc1c[nH]c2ccccc12)C(=O)N[C@@H](CCCNC(=N)N)C(=O)N[C@@H](CC(=O)O)C(=O)N1CCC[C@H]1C(=O)NCC(=O)N[C@@H](CCCNC(=N)N)C(=O)N[C@@H](CO)C(=O)NCC(=O)NCC(=O)N[C@@H](CO)C(=O)N[C@@H](CCCCN)C(N)=O)C(C)C)[C@@H]3C has a blood concentration of 42.8 µg/mL and 53.6 µg/mL (mouse, blood; 24 h).
C=CC(=O)Nc1cccc(Cn2ncc3cnc(Nc4cnn(CCOC)c4)nc32)c1 gave a blood MPV of 5.84 ± 0.29 fL (female Sprague-Dawley rat; oral, 180 mg/kg/day, day 28, 28-day subacute toxicity).
O=C1NC2(CC2)COc2ncc(F)cc2[C@H]2COCCN2c2ccn3ncc1c3n2: “aspartate aminotransferase activity” 94.1 ± 11.4 U/L (Sprague-Dawley rat, male, serum; oral, 5 mg/kg/day, 4 weeks daily, end of treatment).
The serum creatinine of CCCCCCCCCCCCCCCC(=O)OCC(CSC[C@H](N)C(=O)N[C@@H](CO)C(=O)N[C@@H](CCCCN)C(=O)N[C@@H](CCCCN)C(=O)N[C@@H](CCCCN)C(=O)N[C@@H](CCCCN)C(=O)NCCCCCC(=O)N[C@@H](CCCCN)C(=O)N[C@@H](CC(C)C)C(=O)N[C@H](C(=O)N[C@@H](Cc1ccccc1)C(=O)N[C@@H](Cc1ccccc1)C(=O)N[C@@H](Cc1ccc2ccccc2c1)C(=O)O)C(C)C)OC(=O)CCCCCCCCCCCCCCC (stereo partly shown) is reported as 43.4 µmol/L and 82.4 µmol/L and 49.1 µmol/L and 82.8 µmol/L (C57BL/6J mouse, serum; intraperitoneal, dose not given).
CC(C)[C@H]1NC(=O)[C@H](Cc2ccccc2)NC(=O)[C@@H](C(C)C)NC(=O)[C@@H](C)NC(=O)[C@H](CO)NC(=O)[C@@H](Cc2c(-c3ccc(-c4ccc5ccccc5c4)cc3)[nH]c3ccccc23)NC(=O)[C@@H](CO)NC1=O: plasma concentration “not detected” (Sprague Dawley rat, plasma; oral, 20 mg/kg).
The creatinine of CCCCCCCCCCCCCCCC(=O)N[C@@H](CCC(=O)NCCOCCOCCC(=O)NCCOCCOCCC(=O)NCCCC[C@H](NC(=O)[C@H](CC(=O)O)NC(=O)[C@H](CC(C)C)NC(=O)[C@H](Cc1ccc(O)cc1)NC(=O)[C@H](CCCCN)NC(=O)[C@H](CO)NC(=O)[C@H](Cc1ccc(O)cc1)NC(=O)[C@H](CC(=O)O)NC(=O)[C@H](CO)NC(=O)[C@@H](NC(=O)[C@H](Cc1ccccc1)NC(=O)[C@@H](NC(=O)CNC(=O)[C@H](CCC(N)=O)NC(=O)[C@@H](CO)NC(=O)[C@@H](N)Cc1c[nH]cn1)[C@@H](C)O)[C@@H](C)O)C(=O)N[C@@H](CCCNC(=N)N)C(=O)N[C@@H](CCCNC(=N)N)C(=O)N[C@@H](C)C(=O)N[C@@H](CCC(N)=O)C(=O)N[C@@H](CC(=O)O)C(=O)N[C@@H](Cc1ccccc1)C(=O)N[C@H](C(=O)N[C@@H](CCC(N)=O)C(=O)N[C@@H](Cc1c[nH]c2ccccc12)C(=O)N[C@@H](CC(C)C)C(=O)N[C@@H](CC(C)C)C(=O)N[C@@H](CC(N)=O)C(=O)N[C@H](C(=O)NCC(=O)NCC(=O)N1CCC[C@H]1C(=O)N[C@@H](CO)C(=O)N[C@@H](CO)C(=O)NCC(=O)N[C@@H](C)C(=O)N1CCC[C@H]1C(=O)N1CCC[C@H]1C(=O)N1CCC[C@H]1C(=O)N[C@@H](CO)C(N)=O)[C@@H](C)O)C(C)C)C(=O)O is reported as 53.6 ± 9.6 µmol/L (rhesus monkey, female; subcutaneous, 60 µg/kg once daily, 28 days).
For CNC(=O)C[C@H](Cc1ccc(F)cc1)NC(=O)[C@@H](Cc1ccc(Cl)cc1Cl)NC(=O)[C@H](N)Cc1ccccc1C#N, the remaining compound was 94% (CD-1 mouse, liver microsomes; 1 µM, time not given, epoxide hydrolase conditions).

For quick reference, copied from above:
O=C1NC2(CC2)COc2ncc(F)cc2[C@H]2COCCN2c2ccn3ncc1c3n2: “aspartate aminotransferase activity” 94.1 ± 11.4 U/L (Sprague-Dawley rat, male, serum; oral, 5 mg/kg/day, 4 weeks daily, end of treatment).
